Experimental data gathered from unrelated publications.
Parts stem from different laboratories: compare values within a part only.

Sample 1
Target: Prothrombin, mature alpha-thrombin (F2, Homo sapiens, UniProt P00734)
Method: aptamer microarray, sandwich
Molecule type: DNA with 2'F-ANA
Matrix: in vitro
Tested at: 200 nM
Notes: whole 15-mer aptamer, many near background
Together with: Cy3 exosite-II aptamer, 400 nM
Reading: higher = stronger binding
Sequence: GGTTGGTGTGGTTGG
| Modification | mean fluorescence intensity [a.u.] |
| --- | --- |
| 2'F-ANA at 3 4 5 7 9 10 11 12 13 15 | 54.9 |
| 2'F-ANA at 2 5 6 8 9 12 14 | 49.5 |
| 2'F-ANA at 3 6 9 11 12 13 15 | 787 |
| 2'F-ANA at 1 2 3 5 6 9 11 13 14 | 47.7 |
| 2'F-ANA at 1 4 9 10 | 46.5 |

Sample 2
Target: Histone acetyltransferase KAT6A, winged helix 2, GST fusion (KAT6A, Homo sapiens, UniProt Q92794, residues 85-181)
Method: protein binding microarray
Molecule type: double-stranded DNA, one strand shown
Matrix: in vitro
Tested at: not given
Notes: 8-mer, flanks averaged, mean of 2 arrays, mostly near background
Baseline: not given
Reading: higher = stronger binding
Construct (chain): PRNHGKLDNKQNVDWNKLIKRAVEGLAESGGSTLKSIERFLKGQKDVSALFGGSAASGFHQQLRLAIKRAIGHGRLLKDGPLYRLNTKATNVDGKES
| Sequence | E-score |
| --- | --- |
| TACTAAAA | 0.0813 |
| AACCCGCC | 0.0819 |
| GAGGCCTC | 0.181 |
| ATCCCGAG | 0.0875 |
| ACCAGGAC | 0.0442 |
| GGCCCGCA | 0.115 |

Sample 3
Target: Phosphate system positive regulatory protein PHO4, full length, GST-tagged (PHO4, Saccharomyces cerevisiae, UniProt P07270, residues 1-312)
Method: competition protein-binding microarray
Molecule type: double-stranded DNA, one strand shown
Matrix: in vitro
Tested at: 2 µM
Notes: whole 60-bp probe, lowest competitor level
Together with: Cbf1 competitor, 0.05 µM
Reading: higher = stronger binding
Constant ends, left off below: … GTCTTGATTCGCTTGACGCTGCTG
Residues (chain): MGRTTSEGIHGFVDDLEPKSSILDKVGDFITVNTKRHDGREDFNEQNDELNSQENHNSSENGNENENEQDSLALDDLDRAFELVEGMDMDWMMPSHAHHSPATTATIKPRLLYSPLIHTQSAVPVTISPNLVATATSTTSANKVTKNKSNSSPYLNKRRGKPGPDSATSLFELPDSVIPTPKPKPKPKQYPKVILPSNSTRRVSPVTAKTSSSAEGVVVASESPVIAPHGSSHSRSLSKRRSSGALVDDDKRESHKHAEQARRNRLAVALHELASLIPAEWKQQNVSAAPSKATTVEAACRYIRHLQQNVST
| Sequence | fluorescence intensity |
| --- | --- |
| TTGAAAGCTGGTACGACCGTGATGGGCGGCGGTGTT | 4740 a.u. |
| ACTACGAATTTTTCATTCGTGACTCGAAAAACCTAG | 4150 a.u. |
| CATACCCAACCTTGTCCAGTGGGTGAAGATATTTGT | 4280 a.u. |
| TGTATTGATTTTTAGAACGTGAAAAGGATAAACTGA | 8210 a.u. |
| AGTCTCTTCGGGAAGTACATGACAGGGTGGTATATA | 4760 a.u. |

Further values, each from its own experiment
| Molecule | target | assay | system | setting | how to read | measurement | result |
| --- | --- | --- | --- | --- | --- | --- | --- |
| PhoQ, residues 284 288 289 292 302 303 TTCLQL | PhoP, residues 12 14 15 18 19 NFCKL (Escherichia coli, UniProt P23836) | Sort-seq, refers to: YFP reporter | E. coli | PhoQ-PhoP variant library, together with: 10 µM Mg2+ | baseline: high Mg2+ state, higher = stronger signaling | fold induction | 14.2 |

A few entries again (sample 3):
| Sequence | fluorescence intensity |
| --- | --- |
| TTGAAAGCTGGTACGACCGTGATGGGCGGCGGTGTT | 4740 a.u. |
| ACTACGAATTTTTCATTCGTGACTCGAAAAACCTAG | 4150 a.u. |
